# Published values pooled from the literature.
# Numbered parts are unrelated; each lists some results of a single study. Changes are numbered by the printed parent chain.

# Set 1 — method: DHFR PCA, deep sequencing; medium: yeast; with: (+)-ABA 0.0091 µM; relative to: wild-type fitted maximum; direction: higher = stronger binding
# Target: ABI1, truncated, D143A, DHFR fusion (Arabidopsis thaliana)
# Setting: methotrexate growth selection, single substitutions
# Starting sequence: PYL1, truncated, DHFR fusion (Arabidopsis thaliana); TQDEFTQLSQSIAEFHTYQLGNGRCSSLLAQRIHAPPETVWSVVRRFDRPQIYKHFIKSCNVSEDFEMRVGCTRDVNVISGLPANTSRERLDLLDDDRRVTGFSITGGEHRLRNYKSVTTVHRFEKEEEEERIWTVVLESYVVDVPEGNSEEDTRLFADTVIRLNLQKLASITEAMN
Variant,relative binding score
E128Y,22.3%
K126E,36%
V76Y,8.62%
S9D,6.6%
S140D,-5.99%
T17P,-5.62%
L166F,-1.66%
V136G,-8.52%
E127N,31.8%
H122M,-0.831%
T160Y,20.1%
N61A,28.3%
T73F,45.1%
I52F,9.1%
Q10S,39.4%

# Set 2 — method: aptamer microarray, sandwich; form: DNA with 2'F-ANA; medium: in vitro; tested at: 200 nM; with: Cy3 exosite-II aptamer, 400 nM; direction: higher = stronger binding; sequence: GGTTGGTGTGGTTGG
# Target: Prothrombin, mature alpha-thrombin (F2, Homo sapiens, UniProt P00734)
# Setting: whole 15-mer aptamer, many near background
Modification,mean fluorescence intensity [a.u.]
2'F-ANA at 2 5 6 8 12 13 14,46.1
2'F-ANA at 2 3 4 6 9 10 11 12,235
2'F-ANA at 1 4 7 8 9 11 14 15,79.9
2'F-ANA at 2 6 7 9 10 12,150
2'F-ANA at 3 4 5 7 12 13,169
2'F-ANA at 1 3 7 9 11 12,448
2'F-ANA at 2 4 7 8 13,305
2'F-ANA at 1 2 5 6 14,45.3
2'F-ANA at 1 2 4 5 6 7 9 10 11 12 13 15,57.4
2'F-ANA at 3 4 8 9 11 12 13 14 15,284
2'F-ANA at 2 3 5 7 8 9 11 13,80
2'F-ANA at 1 2 7 8 9 11 12 14,65.7
2'F-ANA at 2 3 4 5 6 8 10 11 12 13 14 15,52.6
2'F-ANA at 1 2 3 4 5 6 7 8 11 14,50.7
2'F-ANA at 2 3 4 7 8 10 11 14,186

# Set 3 — method: universal PBM; form: double-stranded DNA, one strand shown; medium: in vitro; tested at: not given; direction: higher = stronger binding
# Target: Sal-like protein 4, full length isoform B (SALL4, Homo sapiens, UniProt Q9UJQ4-2, residues 1-616)
# Setting: 8-mer, flanks averaged, mean of replicates
# Target sequence (chain): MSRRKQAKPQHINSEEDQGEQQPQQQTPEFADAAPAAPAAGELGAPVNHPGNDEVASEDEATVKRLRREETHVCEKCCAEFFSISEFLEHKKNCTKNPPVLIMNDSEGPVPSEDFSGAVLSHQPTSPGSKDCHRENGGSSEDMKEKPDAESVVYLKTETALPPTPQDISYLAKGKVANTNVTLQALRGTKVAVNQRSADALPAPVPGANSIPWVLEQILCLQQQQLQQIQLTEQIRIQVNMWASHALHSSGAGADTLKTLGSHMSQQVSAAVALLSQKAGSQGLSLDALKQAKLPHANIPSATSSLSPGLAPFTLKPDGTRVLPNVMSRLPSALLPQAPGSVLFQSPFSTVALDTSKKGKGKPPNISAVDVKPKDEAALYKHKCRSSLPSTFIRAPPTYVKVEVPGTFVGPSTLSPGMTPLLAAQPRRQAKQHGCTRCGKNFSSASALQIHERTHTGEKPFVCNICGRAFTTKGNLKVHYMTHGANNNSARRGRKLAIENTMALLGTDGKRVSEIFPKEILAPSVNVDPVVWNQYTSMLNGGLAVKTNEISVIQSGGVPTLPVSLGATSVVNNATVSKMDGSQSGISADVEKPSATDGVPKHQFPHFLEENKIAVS
Sequence,E-score
CCCGTTTA,0.114
CGAGTTAA,-0.0296
GACGTCCA,-0.0525
ACGGGCGA,-0.275
GTTTTCCA,0.18
GGTATACC,-0.0975
CGTGAGTA,-0.00432
TACAACCA,0.122
AATGGATC,-0.00262
ACGCTTCA,0.0124
ACTGGCAA,0.127
ATTCATGA,0.222
ACTAACTC,0.0661
ACGAGCGA,0.0194
CTGACAAC,-0.139
ATTAAGGC,0.172
CAAGGAAG,-0.062
ATTTATTC,0.365
GGTACGCA,0.0148
AATGAGTC,0.106
ATAATGCA,0.317
CCGAACGA,-0.155
TATGTGGA,0.192
ATAATCCC,0.21
GCGGCAAA,-0.168

# Set 4 — method: protein binding microarray; form: double-stranded DNA, one strand shown; medium: in vitro; tested at: not given; relative to: not given; direction: higher = stronger binding
# Target: Histone acetyltransferase KAT6A, winged helix 2, GST fusion (KAT6A, Homo sapiens, UniProt Q92794, residues 85-181)
# Setting: 8-mer, flanks averaged, mean of 2 arrays, mostly near background
# Residues (chain): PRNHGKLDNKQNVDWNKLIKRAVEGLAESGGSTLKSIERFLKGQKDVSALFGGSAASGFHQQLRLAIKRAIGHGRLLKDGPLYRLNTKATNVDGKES
Sequence,E-score
AACATAGG,-0.0923
AATCGCTA,-0.108
CTTTGACC,0.0464
ATAGTGTC,-0.015
CACGGAGA,0.134
AACTATGA,-0.125
ACAACCGT,-0.131
CAGCATGG,0.176
ACCAGGTA,-0.094
CATGTGTA,-0.146
GGACTTAC,-0.119
CTGGTGAA,-0.0383
GGCGTCAA,0.176
ATAAATAT,0.0903
GCGCTGAA,-0.0464
GAACTACA,-0.107
CATCAGGA,0.0881

# Set 5 — target: CCND3, cyclin fold, Cln2 fusion (human); method: yeast growth competition, sequencing; medium: yeast; setting: weak parent motif; relative to: not given; direction: higher = stronger binding
# Starting sequence: PKN2 docking peptide (human); VSAVRKLDFSDTM; partner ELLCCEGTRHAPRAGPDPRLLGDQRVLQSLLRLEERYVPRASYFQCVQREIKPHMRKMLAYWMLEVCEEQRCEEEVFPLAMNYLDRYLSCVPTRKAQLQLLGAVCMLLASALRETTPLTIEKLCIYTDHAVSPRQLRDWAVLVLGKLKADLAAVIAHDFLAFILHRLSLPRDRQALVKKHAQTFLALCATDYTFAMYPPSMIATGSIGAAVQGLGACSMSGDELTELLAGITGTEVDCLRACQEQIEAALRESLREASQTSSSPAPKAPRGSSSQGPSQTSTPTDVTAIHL
Variant,normalised enrichment score
VSAVRKLDFSRTM [D11R],0.385
VSRVRKLDFSDTM [A3R],0.366
VSAVRKNDFSDTM [L7N],-0.0147
VSKVRKLDFSDTM [A3K],0.426
VSAVRKLDFSDGM [T12G],0.968
VSAVRKLDPSDTM [F9P],-0.0433
VSAVRKLHFSDTM [D8H],0.517
VSAVRKLDFKDTM [S10K],0.363
VSAWRKLDFSDTM [V4W],-0.0407
VSTVRKLDFSDTM [A3T],0.0724
VSSVRKLDFSDTM [A3S],0.181
VFAVRKLDFSDTM [S2F],-0.15
VSAVRKLDFSDNM [T12N],1.41
VSAVRKLDWSDTM [F9W],0.464
VSAVRKKDFSDTM [L7K],0.138

# Repeated from above (set 4):
Sequence,E-score
ATAAATAT,0.0903
ACAACCGT,-0.131
CATCAGGA,0.0881
CTTTGACC,0.0464
AACTATGA,-0.125
